Measured values pooled from the literature.
Every numbered part comes from another study and shows a few of its results, in no order. Substitutions count along the parent as printed.

Block 1
Target: Histone acetyltransferase KAT6A, winged helix 2, GST fusion (KAT6A, Homo sapiens, UniProt Q92794, residues 85-181)
Method: protein binding microarray
Form: double-stranded DNA, one strand shown
Sample: in vitro
Concentration: not given
Setting: 8-mer, flanks averaged, mean of 2 arrays, mostly near background
Reference: not given
Reading: higher = stronger binding
Residues (chain): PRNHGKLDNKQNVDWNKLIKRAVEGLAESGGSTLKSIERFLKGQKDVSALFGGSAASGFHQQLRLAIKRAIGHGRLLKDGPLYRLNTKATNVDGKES
Sequence | E-score
CGTGTCTA | 0.0784
AGGCTATC | 0.0367
GAAATCAA | 0.0523
TACTAGGA | 0.00583
CGTGCTTC | 0.109
GAAAGAAC | 0.088
CTATATCA | -0.12
AAGATATG | 0.173
AAGACCCC | -0.107
ATGATCCG | 0.0609
GAGTGGCC | 0.0503
CAAAACTG | 0.00927
GTAGGTAA | -0.167
CATCCGTC | -0.0935
GCGCCGTA | 0.128
CTAGGCAG | -0.0799
AGCACAGA | 0.181
GGATGACC | -0.0654
CGATGGAG | -0.0222
AAGAACTG | -0.0827
ATGCAAAA | 0.13
ACATCTCG | -0.096
ACCCTGAC | -0.131
AACCGCCT | 0.0625
ATCAGTCC | -0.329

Block 2
Target: RING finger protein unkempt homolog, zinc fingers 1-6, SBP tag (UNK, Homo sapiens, UniProt Q9C0B0, residues 30-357)
Sequence of UniProt Q9C0B0 (30-357, looked up): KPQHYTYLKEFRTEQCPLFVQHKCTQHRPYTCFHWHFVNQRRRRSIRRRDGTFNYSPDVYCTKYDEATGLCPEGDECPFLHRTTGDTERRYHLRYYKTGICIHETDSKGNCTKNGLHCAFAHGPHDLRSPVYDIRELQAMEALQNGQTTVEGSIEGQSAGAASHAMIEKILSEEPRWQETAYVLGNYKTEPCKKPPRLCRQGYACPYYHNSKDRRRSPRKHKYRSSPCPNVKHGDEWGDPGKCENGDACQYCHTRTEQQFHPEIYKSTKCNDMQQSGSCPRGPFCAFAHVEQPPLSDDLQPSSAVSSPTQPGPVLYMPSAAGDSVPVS
Method: RNA Bind-n-Seq
Form: RNA
Sample: in vitro
Concentration: 100 nM
Setting: RNA with constant flanks, vertebrate orthologous sites, ends assumed
Reference: input RNA pool
Reading: higher = stronger binding
All sequences stand within: GGGAGUUCUACAGUCCGACGAUC … CAACAGAGGAUUGAGCAUCA
Sequence | bound/input enrichment
AGGAAAUGUUGGCUGCAAACCCUCAGGAUCGUCCAGAUGCAUUCGAGCUAGAACUUAGAUUAGUCCAAAUUGCUUUUAAAGAUAGUGGCUGGGACACGUGACACAUGGAUUGCUGGGAAA | 1.61 ratio
ACCUUUUGUAGGCCAAAUACCCUCCUUCUACUGCUUCUGCCAACUGGAAGCACAGAAAACUAGAAUUUCAUUUUAUUUGUUAAAAAAAAAAAUUGAUUUCUUGUAACAUCCACUAGGAAU | 0.536 ratio
CUUUUUUUUUUGCACAUGACAGUGUUUGUAUUGAGGACCUUCCAAGGAAGAGGGAUGCUGUAGCAGUGGUGCCUGGGUGCCUGGCCUCCAGUGUCCCACCUCCUUCACCACCCCACUUGG | 0.286 ratio
AUCCCAGUUUGUAUGCACAUUAUUCACAUUCCUAUCUGUUGUGUUUGCAGAAAUGACAUUUUACCCUUUUCUAAGGGUUAUUUUUGAUUUCAUACGAUUUGGUUGCAUGAAGUUGCCCUU | 0.289 ratio
CAUAGAAUAUUGGAUGCAGCAUAUAAAUUAUCCAAGGCAGUGACUUCAGCUCUAUAGAGAUUGUUAGUUUUAAAGGCACCUACUUUUAUUUAAACUUCUAGAUUGGAUUGUUUGCUAUUG | 1.14 ratio
AGGGACGCUUUGAUGUAAAAAUUGAAGUUAAGAGCUGAUCACAAGCACAAAUCUUUCCCACUAGCCAUUUAAAAAGUUAAAGAUACAAAAACCUACUAGUCUUGAACAAACUGUCAUACG | 1.55 ratio
AAGAUGUGUUUAGUGAGUUGUAUUUAAUGAUCUCAUUCCUGAGUUCCUUUUUCAUUAAAGUAGCUUUAAUUUCUCUUAUUACAGUUAUGAAGAAAUAAAAGGGUUGUGCCUGUAGACACU | 0.247 ratio
AGGGAUGGCCCCCAAUCCCACCUCUGUUUAUUCUGUAAACUACAACCUACAAAUAACCUUUAGCAUUCCUAUUGUAACAAAAUUAAUUUUUAUGAAAUAAAUUAUAUUUCCUAGUCUAAU | 0.769 ratio
AGAAGCAUGCACAUGUCGCUCUCACCAAAAGCAAACAUGUUCAAAAUCUCCGAUAGCGUUUUUAGUAUGCUUUCUUUCUGGCAACCAUUUAUACCUAGAUGCUGCAACAAUUGUUUUCUG | 0.62 ratio
AAGGGCUGCGUAGAGUAGGGCGCGUUUUGCUUAGGUCAUUGCUUCUUGAUUUUCUUUUUUUAGGGGUGGGUCAGGGUUGUGGCACACUAGCUCGGGCGAGAGCUGCCGCAAGUCACCUCA | 1.64 ratio
UUCAGGCUCAACUGACUGUUUCACAGCAUUCCUUACACAGCUAUUUAACAAGUACAGGUGGAGUUAAUUUUCAGGAUACAUCUAGGCACUCAGCAUUAUCUUGCAGCCCAGUUGGAGAUG | 0.488 ratio

Block 3
Target: CCND2, cyclin fold, Cln2 fusion (human)
Method: yeast growth competition, sequencing
Sample: yeast
Setting: weak parent motif
Reference: not given
Reading: higher = stronger binding
Starting sequence: E2F1 docking peptide (human); PPVKRRLDLETDH
Substitution | normalised enrichment score
PMVKRRLDLETDH [P2M] | -0.0653
PPVKRRLDLECDH [T11C] | 0.155
PPVKRRVDLETDH [L7V] | -0.055
PPVKRRIDLETDH [L7I] | 0.424
PPVKDRLDLETDH [R5D] | 0.485
IPVKRRLDLETDH [P1I] | 0.149
PPVKRKLDLETDH [R6K] | 0.0182
PAVKRRLDLETDH [P2A] | 0.211
PPVKARLDLETDH [R5A] | 0.186
TPVKRRLDLETDH [P1T] | 0.378
PEVKRRLDLETDH [P2E] | 0.261
PPVKRRLDLQTDH [E10Q] | 0.341
VPVKRRLDLETDH [P1V] | 0.194
PPVKRRGDLETDH [L7G] | 0.032
PPVKRRLILETDH [D8I] | 0.324
PPVKRRLRLETDH [D8R] | -0.108
PPVFRRLDLETDH [K4F] | 0.171
PPVKRRLDLEPDH [T11P] | 0.323
APVKRRLDLETDH [P1A] | 0.303
PPVKRRLDLETSH [D12S] | 0.342
PPGKRRLDLETDH [V3G] | -0.263
PPVKRRKDLETDH [L7K] | 0.381
PRVKRRLDLETDH [P2R] | 0.119
PPKKRRLDLETDH [V3K] | 0.438
PPVKRRCDLETDH [L7C] | 0.201

Block 4
Target: CRIPT, C-terminal peptide
Method: DHFR complementation, deep sequencing
Sample: yeast
Setting: single substitutions, model-inferred values
Reference: wild type
Reading: higher = weaker binding
Starting sequence: ERBIN, PDZ domain 1 (human); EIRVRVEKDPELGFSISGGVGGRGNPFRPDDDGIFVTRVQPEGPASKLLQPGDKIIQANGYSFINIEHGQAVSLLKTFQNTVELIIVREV; partner TKNYKQTSV
Substitution | binding free energy change
V6N | 0.636 kcal/mol
G21L | 0.235 kcal/mol
A45W | 1.3 kcal/mol
I34S | 0.208 kcal/mol
T37C | 0.222 kcal/mol
S62E | -0.00668 kcal/mol
L74P | 0.605 kcal/mol
H68T | 1.32 kcal/mol
P10A | -0.54 kcal/mol
P26Q | 0.721 kcal/mol
E11T | -0.198 kcal/mol
I64L | -0.0219 kcal/mol
Q50P | 0.0363 kcal/mol
S17K | 1.7 kcal/mol
R3T | -0.275 kcal/mol
A58Q | 0.84 kcal/mol
L74V | -0.00888 kcal/mol
G22L | 0.0198 kcal/mol
V72G | 0.297 kcal/mol

Block 5
Target: NFE2, bZIP domain (human)
Method: DHFR protein complementation
Sample: yeast
Setting: single substitutions, most at no-binding floor
Reference: wild-type JUN-FOS pair
Reading: higher = stronger binding
Starting sequence: JUN, bZIP domain (human); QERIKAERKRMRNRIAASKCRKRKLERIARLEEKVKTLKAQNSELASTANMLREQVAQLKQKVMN; partner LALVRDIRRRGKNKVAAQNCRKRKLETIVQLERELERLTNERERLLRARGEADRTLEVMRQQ
Substitution | binding fitness [natural log]
L38P | -1.52
L59C | -1.47
Q55A | -1.38
A40W | -1.45
N42Q | -1.5
A29W | -1.51
K39Q | -1.45
A40R | -1.39
E32D | -1.35
K39Y | -1.46
A46D | -1.51
T48M | -1.49
L31S | -1.45
S43H | -1.5
L52W | -1.47
A49K | -1.59

Block 6
Target: Prothrombin, mature alpha-thrombin (F2, Homo sapiens, UniProt P00734)
Method: aptamer microarray, sandwich
Form: DNA with 2'F-ANA
Sample: in vitro
Concentration: 200 nM
Setting: whole 15-mer aptamer, many near background
Together with: Cy3 exosite-II aptamer, 400 nM
Reading: higher = stronger binding
Sequence: GGTTGGTGTGGTTGG
Modification | mean fluorescence intensity [a.u.]
2'F-ANA at 1 2 3 6 10 15 | 59.7
2'F-ANA at 4 6 7 15 | 308
2'F-ANA at 3 4 7 10 11 12 | 387
2'F-ANA at 3 4 5 6 8 9 11 14 | 49.2
2'F-ANA at 1 2 4 6 7 15 | 143
2'F-ANA at 1 4 5 6 8 9 10 11 12 13 14 | 69.4
2'F-ANA at 1 2 3 4 8 9 12 | 407
2'F-ANA at 2 3 5 6 8 9 10 12 14 | 65.8
2'F-ANA at 1 2 3 9 11 12 14 15 | 78.9
2'F-ANA at 3 4 6 9 10 14 15 | 167
2'F-ANA at 2 3 5 9 13 14 | 50.6
2'F-ANA at 2 4 6 7 10 11 13 14 15 | 56.5
2'F-ANA at 1 7 8 9 12 13 15 | 395
2'F-ANA at 2 3 4 5 6 7 9 11 12 13 14 | 71.5
2'F-ANA at 1 2 3 4 5 6 10 12 15 | 52.8
2'F-ANA at 1 2 3 4 5 7 9 10 12 13 14 | 46.6
2'F-ANA at 7 10 11 12 13 14 15 | 108

Mixed results
Molecule | target | assay | system | setting | how to read | endpoint | value
PhoQ, residues 284 288 289 292 302 303 SSCLAV | PhoP, residues 12 14 15 18 19 AQCLL (Escherichia coli, UniProt P23836) | Sort-seq, refers to: YFP reporter | E. coli | PhoQ-PhoP variant library, together with: 10 µM Mg2+ | reference: high Mg2+ state, higher = stronger signaling | fold induction | 2.57

For quick reference, copied from above (block 6):
Modification | mean fluorescence intensity [a.u.]
2'F-ANA at 1 2 4 6 7 15 | 143
2'F-ANA at 2 4 6 7 10 11 13 14 15 | 56.5
2'F-ANA at 7 10 11 12 13 14 15 | 108
2'F-ANA at 3 4 6 9 10 14 15 | 167
2'F-ANA at 1 2 3 4 5 7 9 10 12 13 14 | 46.6
2'F-ANA at 4 6 7 15 | 308
2'F-ANA at 1 7 8 9 12 13 15 | 395
2'F-ANA at 1 4 5 6 8 9 10 11 12 13 14 | 69.4
2'F-ANA at 1 2 3 4 8 9 12 | 407
